Measured values from different studies.
Numbered parts are unrelated; each lists some results of a single study.

Series 1 — technique: protein-binding microarray; molecule type: double-stranded DNA, one strand shown; matrix: in vitro; tested at: 940 nM top; notes: 60-bp whole probe; with: salmon DNA 0.4 mg/ml; baseline: random background probes; direction: higher = stronger binding
Target: Interferon regulatory factor 5, full length, phosphomimetic (IRF5, Homo sapiens, UniProt Q13568-2, residues 1-514, S451D/S453D/S456D/S462D)
| Strand | fitted relative affinity |
| --- | --- |
| GCCTAGCACTTAGGTATCCTTTTCCTTAAGTGCTAGGTCTTGATTCGCTTGACGCTGCTG | 0.855 z-score |
| GCCTAGCACGACGGACTGGACTTTCGGGAGGTGCTAGTCTTGATTCGCTTGACGCTGCTG | 0.302 z-score |
| GCCTAGCACTTAGATATCGGCTATCGATTAGTGCTAGTCTTGATTCGCTTGACGCTGCTG | 0.364 z-score |
| GCCTAGCACTCAATTCTGAAAATGGAACTGTGCTAGGTCTTGATTCGCTTGACGCTGCTG | 0.0423 z-score |

Series 2 — technique: RNA Bind-n-Seq; molecule type: RNA; matrix: in vitro; tested at: 200 nM; notes: whole 134-nt RNA, ends assumed; with: 150 mM KCl; baseline: input library; direction: higher = stronger binding
Target: Fragile X messenger ribonucleoprotein 1, C-terminal low-complexity region (Fmr1, Mus musculus, UniProt P35922)
| Strand | log2 enrichment |
| --- | --- |
| GGGAGUUCUACAGUCCGACGAUCUUCUUACAUGUGUAAUCUUCUUCUCCUAGGGCGGCAGAACUCAUGACAAGAACAAGCUCUGUGGUGACACUGGAAGUAGCAAAGCAGGGUUGGAAUUCUCGGGUGUCAAGG | -0.0861 |
| GGGAGUUCUACAGUCCGACGAUCCACAGACAACACGCACCCACACAGACACAGAGGGAAGGGGUUGGGAUGGGGACAAAAUGCACAGCAGGGCGGGGUAGGACCCCAGCCCCUUGGAAUUCUCGGGUGUCAAGG | 1.33 |
| GGGAGUUCUACAGUCCGACGAUCCACAGACAACACGCACCCACACAGACACAGAGGGAAGGGGUUGGGAUGGGGACAGGGUGCAAAGCAGGGCGGGGUAGGACCCCAGCCCCUUGGAAUUCUCGGGUGUCAAGG | 1.14 |
| GGGAGUUCUACAGUCCGACGAUCUUUGUGAGACAUGUGAAAGGAGGACAUGGUCACAGUCAUGGACAUGGACACGCUCACAGUCAUACACGUGGAAGUCAUGGACAUGGAAGAUGGAAUUCUCGGGUGUCAAGG | -2.41 |

Series 3 — technique: universal PBM; molecule type: double-stranded DNA, one strand shown; matrix: in vitro; tested at: 600 nM; direction: higher = stronger binding
Target: Sal-like protein 4, full length isoform A (SALL4, Homo sapiens, UniProt Q9UJQ4, residues 1-1053)
Sequence of UniProt Q9UJQ4 (whole entry, looked up): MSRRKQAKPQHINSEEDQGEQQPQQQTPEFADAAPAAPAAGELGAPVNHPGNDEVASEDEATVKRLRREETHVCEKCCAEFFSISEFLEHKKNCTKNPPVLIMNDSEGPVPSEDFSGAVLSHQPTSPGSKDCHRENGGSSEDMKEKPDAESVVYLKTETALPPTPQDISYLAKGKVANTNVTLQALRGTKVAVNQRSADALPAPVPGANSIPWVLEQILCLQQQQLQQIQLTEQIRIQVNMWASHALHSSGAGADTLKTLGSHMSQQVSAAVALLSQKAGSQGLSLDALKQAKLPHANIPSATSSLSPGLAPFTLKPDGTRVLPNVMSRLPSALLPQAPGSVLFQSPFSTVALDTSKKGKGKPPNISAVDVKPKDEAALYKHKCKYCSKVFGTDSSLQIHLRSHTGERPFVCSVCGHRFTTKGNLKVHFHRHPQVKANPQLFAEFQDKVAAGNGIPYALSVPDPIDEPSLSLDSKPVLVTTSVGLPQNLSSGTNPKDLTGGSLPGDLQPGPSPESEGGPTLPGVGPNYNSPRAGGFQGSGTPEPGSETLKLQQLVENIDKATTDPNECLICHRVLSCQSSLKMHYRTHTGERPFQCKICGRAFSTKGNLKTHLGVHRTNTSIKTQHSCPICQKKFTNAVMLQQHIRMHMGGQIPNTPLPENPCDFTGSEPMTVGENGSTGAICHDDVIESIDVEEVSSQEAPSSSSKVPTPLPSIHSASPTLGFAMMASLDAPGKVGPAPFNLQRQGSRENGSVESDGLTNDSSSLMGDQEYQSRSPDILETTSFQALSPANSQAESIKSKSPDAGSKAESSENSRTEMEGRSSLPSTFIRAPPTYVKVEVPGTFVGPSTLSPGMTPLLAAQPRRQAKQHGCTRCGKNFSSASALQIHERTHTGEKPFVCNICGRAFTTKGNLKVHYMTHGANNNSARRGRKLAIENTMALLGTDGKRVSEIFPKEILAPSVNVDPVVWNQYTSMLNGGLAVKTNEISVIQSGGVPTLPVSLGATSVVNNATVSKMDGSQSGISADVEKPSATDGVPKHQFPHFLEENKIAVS
Notes: 8-mer, flanks averaged, mean of replicates
| Strand | E-score |
| --- | --- |
| CGCCGCAG | -0.309 |
| CAGACTGC | -0.144 |
| CGATGTAA | 0.113 |
| GAGCTCAA | -0.122 |

Single results of other studies
| Substance | target | assay | system | conditions | how to read | measurement | result |
| --- | --- | --- | --- | --- | --- | --- | --- |
| PhoQ, residues 284 288 289 292 302 303 ASSHFY | PhoP, residues 12 14 15 18 19 AQALL (Escherichia coli, UniProt P23836) | Sort-seq, measured: YFP reporter | E. coli | PhoQ-PhoP variant library, with: 10 µM Mg2+ | baseline: high Mg2+ state, higher = stronger signaling | fold induction | 20.1 |

A few entries again (series 2):
| Strand | log2 enrichment |
| --- | --- |
| GGGAGUUCUACAGUCCGACGAUCUUCUUACAUGUGUAAUCUUCUUCUCCUAGGGCGGCAGAACUCAUGACAAGAACAAGCUCUGUGGUGACACUGGAAGUAGCAAAGCAGGGUUGGAAUUCUCGGGUGUCAAGG | -0.0861 |
| GGGAGUUCUACAGUCCGACGAUCCACAGACAACACGCACCCACACAGACACAGAGGGAAGGGGUUGGGAUGGGGACAAAAUGCACAGCAGGGCGGGGUAGGACCCCAGCCCCUUGGAAUUCUCGGGUGUCAAGG | 1.33 |
